{"data": "Measured values pooled from the literature", "organism": "Enterococcus faecium", "note": "Protocols differ between the studies behind these lines."}
{"SMILES": "CC[C@H](C)[C@@H]1NC(=O)[C@@H]([C@@H](C)O)NC(=O)CNC(=O)[C@H](CC(=O)O)NC(=O)CNC(=O)[C@H](CC(=O)O)NC(=O)CNC(=O)[C@H]2CCCCN2C(=O)[C@@H](NC(=O)[C@H](CC(=O)O)NC(=O)/C=C/CCCCCCCCCC(C)C)CNC(=O)[C@@H]2CCCN2C1=O", "test": "broth microdilution", "system": "daptomycin-resistant isolate, Mueller-Hinton broth, Mg2+ 10 mg/L", "setting": "16 h, together with: Ca2+ 10 mM", "MIC": "8 µg/mL"}
{"SMILES": "CC[C@H](C)[C@H](N)C(=O)N[C@@H](CCCNC(=N)N)C(=O)N[C@H](C(=O)N[C@@H](Cc1c[nH]c2ccccc12)C(=O)N[C@@H](Cc1ccccc1)C(=O)N[C@H](C(=O)N[C@@H](CCCCN)C(=O)N[C@H](C(=O)N[C@@H](CCCNC(=N)N)C(=O)N[C@@H](CCCCN)C(=O)N[C@@H](CCSC)C(=O)N[C@@H](CCCCN)C(=O)N[C@@H](C)C(=O)N[C@H](C(=O)N[C@@H](Cc1ccc(O)cc1)C(=O)N[C@@H](Cc1c[nH]cn1)C(N)=O)[C@@H](C)CC)C(C)C)[C@@H](C)CC)C(C)C", "test": "broth dilution", "system": "KCTC 13225", "MIC": "> 100 µM"}
{"SMILES": "CN[C@H](CC(C)C)C(=O)N[C@H]1C(=O)N[C@@H](CC(N)=O)C(=O)N[C@H]2C(=O)N[C@H]3C(=O)N[C@H](C(=O)N[C@H](C(=O)N[C@@H](CCCNC(=N)N)C(N)=O)c4cc(O)cc(O)c4-c4cc3ccc4O)[C@H](O)c3ccc(c(Cl)c3)Oc3cc2cc(c3O[C@@H]2O[C@H](CO)[C@@H](O)[C@H](O)[C@H]2O[C@H]2C[C@](C)(NCc3ccc(OCc4cn(CC(=O)N[C@H](C(=O)N[C@@H](CCN)C(=O)N[C@H]5CCNC(=O)[C@H]([C@@H](C)O)NC(=O)[C@H](CCN)NC(=O)[C@H](CCN)NC(=O)[C@H](CC(C)C)NC(=O)[C@@H](CC(C)C)NC(=O)[C@H](CCN)NC5=O)[C@@H](C)O)nn4)c(OC)c3)[C@H](O)[C@H](C)O2)Oc2ccc(cc2Cl)[C@H]1O", "test": "broth microdilution", "system": "vancomycin-resistant vanB, tryptic soy broth", "setting": "20 to 24 h, 37 °C, 0.002% polysorbate 80", "MIC": "0.031 µg/mL"}
{"SMILES": "CC(C)CCCCCCCCC/C=C/C(=O)N[C@@H](CC(N)=O)C(=O)N[C@H]1CNC(=O)[C@@H]2CCCN2C(=O)[C@H](C(C)C)NC(=O)[C@@H](CN)NC(=O)CNC(=O)[C@H](CC(=O)O)NC(=O)CNC(=O)[C@H](CC(=O)O)NC(=O)[C@H](CC(=O)O)NC(=O)[C@H]2CCCCN2C1=O", "test": "broth microdilution", "system": "daptomycin-resistant isolate, Mueller-Hinton broth, Mg2+ 10 mg/L", "setting": "16 h, together with: Ca2+ 1.0 mM", "MIC": "8 µg/mL"}
{"SMILES": "c1ccc(CCNC2CCCc3c2[nH]c2ccc(C4CCCCC4)cc32)cc1 (stereo not shown)", "test": "broth microdilution", "system": "BM4147 vancomycin-resistant", "MIC": "2 µg/mL"}
{"SMILES": "Oc1c(Br)cc(Br)c2nc3ccc(C(F)(F)F)cc3nc12", "test": "broth microdilution", "system": "vancomycin-resistant 700221, brain-heart infusion broth", "MIC": "0.78 µM"}
{"SMILES": "c1ccc2c(c1)nc(CNCC13CC4CC(CC(C4)C1)C3)n2CC1CCCCC1", "system": "ATCC 19434", "MIC": "16 µg/mL"}
{"SMILES": "CC[C@H](C)[C@H](N)C(=O)N[C@H](C)C(=O)N[C@@H](CC(C)C)C(=O)N[C@H](CCC(=O)O)C(=O)N[C@H](C(=O)N[C@H]1CCCCNC(=O)[C@H](CC(N)=O)NC(=O)[C@@H](CC(=O)O)NC(=O)[C@H](Cc2c[nH]cn2)NC(=O)[C@@H](Cc2ccccc2)NC(=O)[C@H]([C@@H](C)CC)NC(=O)[C@@H](CCCN)NC1=O)[C@@H](C)CC", "system": "VanB vancomycin-resistant", "setting": "18 h, 37 °C, 0.3 mM ZnSO4 LB", "MIC": "> 64 µg/mL"}
{"SMILES": "C#CCNC(=O)[C@H]1NC(=O)[C@H]2NC(=O)[C@H](NC(=O)[C@@H]3NC(=O)[C@H](CC(N)=O)NC(=O)[C@H](NC(=O)[C@@H](CC(C)C)NC)[C@H](O)c4ccc(c(Cl)c4)Oc4cc3cc(c4O[C@@H]3O[C@H](CO)[C@@H](O)[C@H](O)[C@H]3O[C@H]3C[C@](C)(N)[C@H](O)[C@H](C)O3)Oc3ccc(cc3Cl)[C@H]2O)c2ccc(O)c(c2)-c2c(O)cc(O)cc21", "system": "VRE vanB", "MIC": "86 µM"}
{"SMILES": "CC[C@H](C)[C@H](N)C(=O)N[C@@H](CCCNC(=N)N)C(=O)N[C@H](C(=O)N[C@@H](Cc1c[nH]c2ccccc12)C(=O)N[C@@H](Cc1ccccc1)C(=O)N[C@H](C(=O)N[C@@H](CCCCN)C(=O)N[C@H](C(=O)N[C@@H](CCCNC(=N)N)C(=O)N[C@@H](CCCCN)C(=O)N[C@@H](CCSC)C(=O)N[C@@H](CCCCN)C(=O)N[C@@H](C)C(=O)N[C@H](C(=O)N[C@@H](Cc1ccc(O)cc1)C(=O)N[C@@H](Cc1c[nH]cn1)C(=O)N[C@H](C(N)=O)[C@@H](C)O)[C@@H](C)CC)C(C)C)[C@@H](C)CC)C(C)C", "test": "broth dilution", "system": "KCTC 13225", "MIC": "25 µM"}
{"SMILES": "C#CCOc1ccc(CN[C@@]2(C)C[C@H](O[C@H]3[C@H](Oc4c5cc6cc4Oc4ccc(cc4Cl)[C@@H](O)[C@@H](NC(=O)[C@@H](CC(C)C)NC)C(=O)N[C@@H](CC(N)=O)C(=O)N[C@H]6C(=O)N[C@H]4C(=O)N[C@H](C(=O)N[C@H](C(=O)NCC(N)=O)c6cc(O)cc(O)c6-c6cc4ccc6O)[C@H](O)c4ccc(c(Cl)c4)O5)O[C@H](CO)[C@@H](O)[C@@H]3O)O[C@@H](C)[C@H]2O)cc1OC", "system": "VRE vanB", "MIC": "19 µM"}
{"SMILES": "CC[C@H](C)[C@H](NC(=O)[C@@H](CCC(=O)O)NC(=O)[C@H](CC(C)C)NC(=O)c1cccc(C(=O)O)n1)C(=O)N[C@H]1CCCCNC(=O)[C@H](CC(N)=O)NC(=O)[C@@H](CC(=O)O)NC(=O)[C@H](Cc2c[nH]cn2)NC(=O)[C@@H](Cc2ccccc2)NC(=O)[C@H]([C@@H](C)CC)NC(=O)[C@@H](CCCN)NC1=O", "system": "VanB vancomycin-resistant", "setting": "18 h, 37 °C, 0.3 mM ZnSO4 LB", "MIC": "> 64 µg/mL"}
{"SMILES": "CN[C@H](CC(C)C)C(=O)N[C@H]1C(=O)N[C@@H](CC(N)=O)C(=O)N[C@H]2C(=O)N[C@H]3C(=O)N[C@H](C(=O)N[C@H](C(=O)NCc4cn(CCCCC(=O)N[C@H](C(=O)N[C@@H](CCN)C(=O)N[C@H]5CCNC(=O)[C@H]([C@@H](C)O)NC(=O)[C@H](CCN)NC(=O)[C@H](CCN)NC(=O)[C@H](CC(C)C)NC(=O)[C@@H](CC(C)C)NC(=O)[C@H](CCN)NC5=O)[C@@H](C)O)nn4)c4cc(O)cc(O)c4-c4cc3ccc4O)[C@H](O)c3ccc(c(Cl)c3)Oc3cc2cc(c3O[C@@H]2O[C@H](CO)[C@@H](O)[C@H](O)[C@H]2O[C@H]2C[C@](C)(N)[C@H](O)[C@H](C)O2)Oc2ccc(cc2Cl)[C@H]1O", "system": "VRE vanB", "MIC": "3 µM"}
{"SMILES": "CCCCCCC#Cc1cncc(-c2nnc(SCc3ccc(Cl)cc3)n2C)c1", "test": "broth microdilution", "system": "ATCC 51559 MDR VRE", "setting": "18 to 24 h, 37 °C", "MIC": "> 64 µg/mL"}
{"SMILES": "CN[C@H](CC(C)C)C(=O)N[C@H]1C(=O)N[C@@H](CC(N)=O)C(=O)N[C@H]2C(=O)N[C@H]3C(=O)N[C@H](C(=O)N[C@H](C(=O)NCc4cn(CC(=O)N[C@H](C(=O)N[C@@H](CCN)C(=O)N[C@H]5CCNC(=O)[C@H]([C@@H](C)O)NC(=O)[C@H](CCN)NC(=O)[C@H](CCN)NC(=O)[C@H](CC(C)C)NC(=O)[C@@H](CC(C)C)NC(=O)[C@H](CCN)NC5=O)[C@@H](C)O)nn4)c4cc(O)cc(O)c4-c4cc3ccc4O)[C@H](O)c3ccc(c(Cl)c3)Oc3cc2cc(c3O[C@@H]2O[C@H](CO)[C@@H](O)[C@H](O)[C@H]2O[C@H]2C[C@](C)(N)[C@H](O)[C@H](C)O2)Oc2ccc(cc2Cl)[C@H]1O", "test": "broth microdilution", "system": "vancomycin-resistant vanB, tryptic soy broth", "setting": "20 to 24 h, 37 °C, 0.002% polysorbate 80", "MIC": "2 µg/mL"}
{"SMILES": "CC(C)CCCCCCCCC/C=C/C(=O)N[C@@H](CC(=O)O)C(=O)N[C@H]1CNC(=O)[C@@H]2CCCN2C(=O)[C@H](C(C)C)NC(=O)[C@@H](CN)NC(=O)CNC(=O)[C@H](CC(=O)O)NC(=O)CNC(=O)[C@H](CC(=O)O)NC(=O)[C@H](CC(=O)O)NC(=O)[C@H]2CCCCN2C1=O", "test": "broth microdilution", "system": "daptomycin-resistant isolate, Mueller-Hinton broth, Mg2+ 10 mg/L", "setting": "16 h, together with: Ca2+ 10 mM", "MIC": "2 µg/mL"}
{"note": "Repeated from above:"}
{"SMILES": "CC(C)CCCCCCCCC/C=C/C(=O)N[C@@H](CC(=O)O)C(=O)N[C@H]1CNC(=O)[C@@H]2CCCN2C(=O)[C@H](C(C)C)NC(=O)[C@@H](CN)NC(=O)CNC(=O)[C@H](CC(=O)O)NC(=O)CNC(=O)[C@H](CC(=O)O)NC(=O)[C@H](CC(=O)O)NC(=O)[C@H]2CCCCN2C1=O", "test": "broth microdilution", "system": "daptomycin-resistant isolate, Mueller-Hinton broth, Mg2+ 10 mg/L", "setting": "16 h, together with: Ca2+ 10 mM", "MIC": "2 µg/mL"}
